Earlier results as cited in several papers.
Lines come from different studies, so protocols differ. ± gives the spread as reported.
CD58 with CD2: Lymphocyte function-associated antigen 3, with CD2 (CD58, Homo sapiens, UniProt P19256)

Chains of the proteins cited; added tags and fusions are not shown. Residues count along the entry.
UniProt P19256, 29-250 limits assumed: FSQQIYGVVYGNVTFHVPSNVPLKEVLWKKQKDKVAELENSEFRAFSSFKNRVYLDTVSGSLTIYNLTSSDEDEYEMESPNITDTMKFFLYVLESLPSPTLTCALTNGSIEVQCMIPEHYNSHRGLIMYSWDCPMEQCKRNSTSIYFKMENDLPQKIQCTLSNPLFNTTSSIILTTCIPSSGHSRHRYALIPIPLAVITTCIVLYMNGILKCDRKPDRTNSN
UniProt P00533, whole entry C797S/L858R, looked up: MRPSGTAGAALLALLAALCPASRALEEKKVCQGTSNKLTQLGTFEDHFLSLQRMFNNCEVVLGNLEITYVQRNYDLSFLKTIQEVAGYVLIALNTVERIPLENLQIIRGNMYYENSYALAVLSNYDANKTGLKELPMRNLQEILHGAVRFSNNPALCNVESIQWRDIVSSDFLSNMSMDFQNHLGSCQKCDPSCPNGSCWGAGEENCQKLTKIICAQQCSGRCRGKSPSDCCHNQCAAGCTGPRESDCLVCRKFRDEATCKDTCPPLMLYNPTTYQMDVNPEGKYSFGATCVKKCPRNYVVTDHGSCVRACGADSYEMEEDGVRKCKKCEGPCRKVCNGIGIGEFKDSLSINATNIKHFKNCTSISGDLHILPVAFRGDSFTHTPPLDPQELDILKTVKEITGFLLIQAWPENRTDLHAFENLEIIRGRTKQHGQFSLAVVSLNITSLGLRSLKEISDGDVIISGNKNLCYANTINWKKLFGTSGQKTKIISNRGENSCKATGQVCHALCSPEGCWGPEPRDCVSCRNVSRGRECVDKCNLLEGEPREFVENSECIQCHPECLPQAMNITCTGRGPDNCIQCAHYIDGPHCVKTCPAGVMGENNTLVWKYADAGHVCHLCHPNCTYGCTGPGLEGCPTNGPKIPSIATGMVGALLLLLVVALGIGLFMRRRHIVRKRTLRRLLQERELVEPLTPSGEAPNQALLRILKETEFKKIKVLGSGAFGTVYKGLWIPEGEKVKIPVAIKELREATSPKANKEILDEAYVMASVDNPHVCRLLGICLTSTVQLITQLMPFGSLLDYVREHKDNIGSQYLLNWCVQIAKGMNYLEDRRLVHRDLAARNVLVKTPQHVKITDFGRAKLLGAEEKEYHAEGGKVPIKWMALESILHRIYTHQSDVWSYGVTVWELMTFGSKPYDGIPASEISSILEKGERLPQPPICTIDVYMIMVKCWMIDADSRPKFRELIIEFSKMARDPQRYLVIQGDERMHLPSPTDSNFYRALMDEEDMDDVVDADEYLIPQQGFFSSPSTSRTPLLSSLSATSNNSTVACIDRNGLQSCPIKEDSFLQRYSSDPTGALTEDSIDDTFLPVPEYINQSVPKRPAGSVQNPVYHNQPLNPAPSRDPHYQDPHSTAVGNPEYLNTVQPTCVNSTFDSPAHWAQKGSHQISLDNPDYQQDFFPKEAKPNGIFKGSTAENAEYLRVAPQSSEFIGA
UniProt A0A0H2ZM50, 1-441: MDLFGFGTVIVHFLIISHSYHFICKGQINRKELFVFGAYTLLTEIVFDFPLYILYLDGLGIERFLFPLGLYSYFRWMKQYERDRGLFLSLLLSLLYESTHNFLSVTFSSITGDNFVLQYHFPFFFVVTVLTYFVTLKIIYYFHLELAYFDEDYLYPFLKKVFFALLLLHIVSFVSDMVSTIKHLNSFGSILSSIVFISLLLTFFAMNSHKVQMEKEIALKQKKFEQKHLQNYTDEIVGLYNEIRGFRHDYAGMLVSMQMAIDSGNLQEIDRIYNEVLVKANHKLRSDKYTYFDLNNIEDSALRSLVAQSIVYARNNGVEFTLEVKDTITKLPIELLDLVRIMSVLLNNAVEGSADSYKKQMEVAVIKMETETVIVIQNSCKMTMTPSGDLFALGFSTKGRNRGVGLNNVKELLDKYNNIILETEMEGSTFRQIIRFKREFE
UniProt P29477, whole entry: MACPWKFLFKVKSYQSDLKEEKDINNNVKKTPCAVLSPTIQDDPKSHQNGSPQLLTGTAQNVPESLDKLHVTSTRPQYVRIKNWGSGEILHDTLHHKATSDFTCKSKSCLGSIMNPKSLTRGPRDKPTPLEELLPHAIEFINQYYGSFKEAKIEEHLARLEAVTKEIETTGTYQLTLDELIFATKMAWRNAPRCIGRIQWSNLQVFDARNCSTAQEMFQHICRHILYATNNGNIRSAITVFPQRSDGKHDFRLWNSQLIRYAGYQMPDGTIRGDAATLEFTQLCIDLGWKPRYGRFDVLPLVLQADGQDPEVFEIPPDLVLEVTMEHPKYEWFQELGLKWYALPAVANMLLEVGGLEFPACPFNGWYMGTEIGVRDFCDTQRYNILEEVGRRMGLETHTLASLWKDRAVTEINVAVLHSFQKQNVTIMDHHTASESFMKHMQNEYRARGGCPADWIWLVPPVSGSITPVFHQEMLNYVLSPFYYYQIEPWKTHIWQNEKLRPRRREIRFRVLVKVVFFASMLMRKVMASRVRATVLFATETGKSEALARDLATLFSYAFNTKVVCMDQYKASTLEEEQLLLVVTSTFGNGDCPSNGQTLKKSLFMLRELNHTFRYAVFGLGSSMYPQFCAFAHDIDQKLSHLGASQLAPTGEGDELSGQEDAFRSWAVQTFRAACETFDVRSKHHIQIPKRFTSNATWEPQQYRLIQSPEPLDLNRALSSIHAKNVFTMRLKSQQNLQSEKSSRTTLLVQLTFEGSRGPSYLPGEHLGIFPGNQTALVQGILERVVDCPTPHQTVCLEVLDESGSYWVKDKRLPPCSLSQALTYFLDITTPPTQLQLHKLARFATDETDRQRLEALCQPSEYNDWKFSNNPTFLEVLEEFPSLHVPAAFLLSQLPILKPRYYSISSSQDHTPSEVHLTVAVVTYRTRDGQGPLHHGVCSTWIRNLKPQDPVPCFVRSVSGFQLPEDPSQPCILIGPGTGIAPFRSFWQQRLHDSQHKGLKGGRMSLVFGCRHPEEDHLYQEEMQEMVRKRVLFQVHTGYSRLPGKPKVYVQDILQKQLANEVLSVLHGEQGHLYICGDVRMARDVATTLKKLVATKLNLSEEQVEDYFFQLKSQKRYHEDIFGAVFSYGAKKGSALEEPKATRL
UniProt P30968, whole entry: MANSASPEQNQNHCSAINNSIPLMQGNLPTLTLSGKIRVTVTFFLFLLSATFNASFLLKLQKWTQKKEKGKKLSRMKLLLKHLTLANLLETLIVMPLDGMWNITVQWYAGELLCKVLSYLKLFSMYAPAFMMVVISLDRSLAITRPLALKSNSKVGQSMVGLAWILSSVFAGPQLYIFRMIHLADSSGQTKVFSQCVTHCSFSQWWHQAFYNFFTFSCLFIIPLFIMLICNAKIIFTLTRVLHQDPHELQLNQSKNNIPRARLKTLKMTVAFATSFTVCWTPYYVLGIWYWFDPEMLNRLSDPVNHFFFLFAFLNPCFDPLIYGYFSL
UniProt O08967, 261-387 limits assumed: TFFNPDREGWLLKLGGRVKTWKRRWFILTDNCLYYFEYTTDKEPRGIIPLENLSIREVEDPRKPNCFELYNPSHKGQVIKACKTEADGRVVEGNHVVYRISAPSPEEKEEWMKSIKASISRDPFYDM
UniProt Q01727, whole entry: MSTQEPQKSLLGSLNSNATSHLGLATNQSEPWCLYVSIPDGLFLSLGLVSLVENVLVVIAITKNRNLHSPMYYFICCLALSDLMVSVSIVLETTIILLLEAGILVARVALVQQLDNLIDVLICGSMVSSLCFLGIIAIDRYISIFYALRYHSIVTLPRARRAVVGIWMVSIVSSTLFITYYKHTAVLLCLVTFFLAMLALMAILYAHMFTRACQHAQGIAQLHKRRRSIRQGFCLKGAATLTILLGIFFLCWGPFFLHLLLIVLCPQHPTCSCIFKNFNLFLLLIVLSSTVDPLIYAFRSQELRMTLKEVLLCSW
UniProt Q9NZQ7, whole entry, looked up: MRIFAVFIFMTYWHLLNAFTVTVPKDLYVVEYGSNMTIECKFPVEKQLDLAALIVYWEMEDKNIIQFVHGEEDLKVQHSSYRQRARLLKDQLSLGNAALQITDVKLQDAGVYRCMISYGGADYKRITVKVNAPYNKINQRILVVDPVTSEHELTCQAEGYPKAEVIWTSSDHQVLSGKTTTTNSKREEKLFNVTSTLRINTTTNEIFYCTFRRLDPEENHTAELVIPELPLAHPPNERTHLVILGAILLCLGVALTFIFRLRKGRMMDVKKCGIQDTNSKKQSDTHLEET
UniProt P06729, 25-351 partner limits assumed: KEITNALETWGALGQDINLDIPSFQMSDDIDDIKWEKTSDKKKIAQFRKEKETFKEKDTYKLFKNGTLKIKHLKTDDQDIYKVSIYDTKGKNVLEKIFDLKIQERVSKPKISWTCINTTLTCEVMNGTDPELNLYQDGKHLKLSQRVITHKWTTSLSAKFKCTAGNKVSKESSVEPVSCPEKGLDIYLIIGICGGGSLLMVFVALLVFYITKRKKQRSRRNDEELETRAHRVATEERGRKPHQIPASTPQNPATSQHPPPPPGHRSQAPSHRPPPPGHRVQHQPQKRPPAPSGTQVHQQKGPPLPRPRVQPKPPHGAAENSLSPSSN

SMILES | tested on | assay | test system | setting | quantity | value
COc1ccc(NC(=O)Cn2c(-c3cscn3)nc3ccccc32)cc1 | Inosine-5'-monophosphate dehydrogenase 2 (IMPDH2, Homo sapiens, UniProt P12268) | enzyme activity, inhibitor |  | lower bound | IC50 | ≥ 200 µM
COc1cc(N2CCC(N3CCN(C)CC3)CC2)ccc1Nc1ncc(Cl)c(Nc2ccccc2NS(C)(=O)=O)n1 | Epidermal growth factor receptor (EGFR, Homo sapiens, UniProt P00533, C797S/L858R) | kinase activity, inhibitor, biochemical kinase |  | together with: ATP at Km | IC50 | 0.00535 µM
O=C(Nc1ccc(-c2nc3ccccc3s2)cc1)C1CCN(S(=O)(=O)c2ccccc2Cl)CC1 |  |  | rat liver microsomes |  | half-life | 8.82 min
CC[C@H](C)[C@H](NC(=O)[C@H](CCCNC(=N)N)NC(=O)[C@@H](NC(=O)CNC(C)=O)[C@@H](C)O)C(=O)N[C@H](C(=O)N[C@@H](Cc1ccc(O)cc1)C(=O)N[C@@H](CC(=O)O)C(=O)N[C@@H](CCCNC(=N)N)C(=O)N[C@@]1(C)CCCC=CCCC[C@@](C)(C(=O)N[C@@H](CS)C(=O)N[C@@H](CCCNC(=N)N)C(=O)N[C@@H](CC(N)=O)C(N)=O)NC(=O)[C@H](CCSC)NC(=O)[C@H](CC(C)C)NC(=O)[C@H](Cc2ccccc2)NC1=O)[C@@H](C)CC |  | circular dichroism | sodium phosphate buffer | pH 7.4, 25 °C, buffer 5 mM | helicity | 44%
C[C@@H]1NC(=O)[C@@H]2CSSC[C@H](NC(=O)[C@H](CC(=O)O)NC(=O)[C@H](CC(=O)O)NC(=O)CNC(=O)[C@H](CC(=O)O)NC(=O)[C@H](Cc3ccc(O)cc3)NC1=O)C(=O)N[C@@H](CCCCN)C(=O)N[C@@H](CO)C(=O)N[C@@H](C)C(=O)N1CCC[C@H]1C(=O)N1CCC[C@H]1C(=O)N[C@@H](CO)C(=O)N2 | CD58 with CD2 | lymphocyte adhesion, inhibitor | Jurkat on HFLS-RA cells |  | IC50 | 0.037 ± 0.001 µM
CC[C@H](C)[C@H](NC(=O)[C@H](Cc1ccccc1)NC(=O)[C@H](CC(=O)O)NC(=O)[C@H](CCCNC(=N)N)NC(=O)[C@H](Cc1ccccc1)NC(=O)[C@H](Cc1ccccc1)NC(=O)[C@H](CCCCN)NC(=O)[C@H](CO)NC(=O)[C@H](CC(C)C)NC(=O)[C@H](CCCNC(=N)N)NC(=O)[C@H](CCSC)NC(=O)[C@H](C)N)C(=O)N[C@@H](CC(C)C)C(=O)N[C@@H](CCC(N)=O)C(=O)N[C@@H](CCCNC(=N)N)C(=O)N[C@@H](CCCCN)C(=O)N[C@@H](CCCCN)C(=O)O | Competence histidine kinase ComD (Streptococcus pneumoniae serotype 2, UniProt A0A0H2ZM50) | ComD1 signalling, competitive inhibitor, reporter gene | Streptococcus pneumoniae, D39 pcomX::lacZ |  | IC50 | 0.086 µM
Cc1cc(N)nc(CCc2cccc(C(O)Cc3cc(C)cc(N)n3)c2)c1 (stereo not drawn) | Nitric oxide synthase, inducible (Nos2, Mus musculus, UniProt P29477) |  |  |  | Ki | 1.45 µM
O=C(/C=C/c1nc2ccccc2[nH]1)c1c(-c2ccccc2)c2cc(Cl)ccc2[nH]c1=O |  |  | mouse melanoma xenograft | intraperitoneal | dose-limiting toxicity dose | 5 mg/kg
C/C(=N\Nc1nc2ccccc2n1C)c1ccccn1 |  |  |  | concentration not given | terminal half-life | 60 min
CC(C)C[C@H](NC(=O)[C@@H](CCCCNC(=O)CCCCCNC(=O)CN1CCN(CC(=O)O)CCN(CC(=O)O)CCN(CC(=O)O)CC1)NC(=O)[C@H](Cc1ccc(O)cc1)NC(=O)[C@H](CO)NC(=O)[C@H](Cc1c[nH]c2ccccc12)NC(=O)[C@H](Cc1cnc[nH]1)NC(=O)[C@@H]1CCC(=O)N1)C(=O)N[C@@H](CCCNC(=N)N)C(=O)N1CCC[C@H]1C(=O)NCC(N)=O | Gonadotropin-releasing hormone receptor (GNRHR, Homo sapiens, UniProt P30968) | binding |  |  | IC50 | 0.0361 µM
CCCCCCCC(=O)OC[C@H](COP(=O)(O)O[C@H]1[C@H](O)[C@@H](OP(=O)(O)O)[C@H](OP(=O)(O)O)[C@@H](OP(=O)(O)O)[C@H]1O)OC(=O)CCCCCCC | Cytohesin-3, PH domain (Cyth3, Mus musculus, UniProt O08967) | SPR |  |  | Kd | 0.059 to 0.17 µM
C[C@@H]1NC(=O)[C@H](CCCCN)NC(=O)[C@@H]2CSSC[C@H](NC(=O)[C@H](CO)NC(=O)[C@@H]3CCCN3C(=O)[C@@H]3CCCN3C(=O)[C@H](C)NC(=O)[C@H](CO)NC1=O)C(=O)N[C@@H](Cc1ccc(O)cc1)C(=O)N[C@@H](CC(=O)O)C(=O)NCC(=O)N[C@@H](CC(=O)O)C(=O)N[C@@H](CC(=O)O)C(=O)N2 | CD58 with CD2 | cell adhesion, inhibitor | Jurkat on OVCAR-3 |  | IC50 | 0.043 ± 0.025 µM
CC(C)[C@H](NC(=O)[C@@H]1CCCN1C(=O)[C@H](CCCNC(=N)N)NC(=O)[C@H](CS)NC(=O)[C@H](Cc1c[nH]c2ccccc12)NC(=O)[C@H](CCCNC(=N)N)NC(=O)[C@@H](Cc1ccccc1)NC(=O)[C@H](Cc1c[nH]cn1)NC(=O)[C@H](CCC(=O)O)NC(=O)[C@H](CS)NC(=O)[C@H](CS)NC(=O)[C@H](CCCNC(=N)N)NC(=O)[C@@H]1CC(=O)N[C@@H](CCCNC(=N)N)C(=O)NCC(=O)N[C@@H](CC(=O)O)C(=O)N[C@H](Cc2ccc(O)cc2)C(=O)N1)C(N)=O | Melanocyte-stimulating hormone receptor (Mc1r, Mus musculus, UniProt Q01727) |  | B16-F1 |  | IC50 | 0.0007 µM
NS(=O)(=O)c1c(F)c(F)c(SCCO)c(F)c1NC1CCCCCCC1 |  |  |  | sulfonamide group | pKa | 8.8
CCCC[C@H]1C(=O)N(C)CC(=O)N[C@@H](CC(=O)O)C(=O)N[C@@H](C(C)C)C(=O)N(C)[C@@H](Cc2ccccc2)C(=O)N[C@@H](Cc2ccc(O)cc2)C(=O)N(C)CC(=O)N[C@@H](Cc2c[nH]c3ccccc23)C(=O)N[C@@H](Cc2ccc(O)cc2)C(=O)N[C@@H](CC(C)C)C(=O)N[C@H](C(=O)NCC(N)=O)CSCC(=O)N[C@@H](Cc2ccccc2)C(=O)N(C)[C@@H](Cc2ccccc2)C(=O)N1C | Programmed cell death 1 ligand 1 (CD274, Homo sapiens, UniProt Q9NZQ7) | binding |  |  | EC50 | 0.293 µM

Excerpt of the above:
SMILES | tested on | assay | test system | setting | quantity | value
CC[C@H](C)[C@H](NC(=O)[C@H](Cc1ccccc1)NC(=O)[C@H](CC(=O)O)NC(=O)[C@H](CCCNC(=N)N)NC(=O)[C@H](Cc1ccccc1)NC(=O)[C@H](Cc1ccccc1)NC(=O)[C@H](CCCCN)NC(=O)[C@H](CO)NC(=O)[C@H](CC(C)C)NC(=O)[C@H](CCCNC(=N)N)NC(=O)[C@H](CCSC)NC(=O)[C@H](C)N)C(=O)N[C@@H](CC(C)C)C(=O)N[C@@H](CCC(N)=O)C(=O)N[C@@H](CCCNC(=N)N)C(=O)N[C@@H](CCCCN)C(=O)N[C@@H](CCCCN)C(=O)O | Competence histidine kinase ComD (Streptococcus pneumoniae serotype 2, UniProt A0A0H2ZM50) | ComD1 signalling, competitive inhibitor, reporter gene | Streptococcus pneumoniae, D39 pcomX::lacZ |  | IC50 | 0.086 µM
Cc1cc(N)nc(CCc2cccc(C(O)Cc3cc(C)cc(N)n3)c2)c1 (stereo not drawn) | Nitric oxide synthase, inducible (Nos2, Mus musculus, UniProt P29477) |  |  |  | Ki | 1.45 µM
